Results of several laboratories.
Every numbered part comes from another study and shows a few of its results, in no order. Changes are numbered by the printed parent chain.
Chain of UniProt Q01959 (whole entry, looked up): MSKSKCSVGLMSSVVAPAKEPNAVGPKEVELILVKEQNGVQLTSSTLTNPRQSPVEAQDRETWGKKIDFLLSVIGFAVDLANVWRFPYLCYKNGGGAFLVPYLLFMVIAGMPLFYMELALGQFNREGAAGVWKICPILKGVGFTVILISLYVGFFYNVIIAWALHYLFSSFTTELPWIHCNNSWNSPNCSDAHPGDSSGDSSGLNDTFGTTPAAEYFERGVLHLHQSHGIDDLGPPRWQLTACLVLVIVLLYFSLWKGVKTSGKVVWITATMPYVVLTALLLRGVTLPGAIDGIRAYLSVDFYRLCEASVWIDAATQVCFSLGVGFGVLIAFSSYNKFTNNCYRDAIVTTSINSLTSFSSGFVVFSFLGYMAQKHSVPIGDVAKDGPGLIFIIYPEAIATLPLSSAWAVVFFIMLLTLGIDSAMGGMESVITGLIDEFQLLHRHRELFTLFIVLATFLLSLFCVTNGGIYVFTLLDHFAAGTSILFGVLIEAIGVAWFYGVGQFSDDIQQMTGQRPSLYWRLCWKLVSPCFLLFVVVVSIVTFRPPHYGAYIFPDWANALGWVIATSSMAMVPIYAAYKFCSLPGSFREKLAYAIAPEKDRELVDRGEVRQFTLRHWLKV

Sample 1
Target: tungstate, free oxyanion
Technique: microfluidic competitive inhibition
Sample: in vitro, cell-free expressed
Tested at: not given
Notes: derived from inhibition constants, unchanged parent 2230 nM
Reading: lower = stronger binding
Endpoint: oxyanion analog dissociation constant
Starting sequence: PafA, mature enzyme, eGFP fusion (Elizabethkingia meningoseptica, UniProt Q9KJX5); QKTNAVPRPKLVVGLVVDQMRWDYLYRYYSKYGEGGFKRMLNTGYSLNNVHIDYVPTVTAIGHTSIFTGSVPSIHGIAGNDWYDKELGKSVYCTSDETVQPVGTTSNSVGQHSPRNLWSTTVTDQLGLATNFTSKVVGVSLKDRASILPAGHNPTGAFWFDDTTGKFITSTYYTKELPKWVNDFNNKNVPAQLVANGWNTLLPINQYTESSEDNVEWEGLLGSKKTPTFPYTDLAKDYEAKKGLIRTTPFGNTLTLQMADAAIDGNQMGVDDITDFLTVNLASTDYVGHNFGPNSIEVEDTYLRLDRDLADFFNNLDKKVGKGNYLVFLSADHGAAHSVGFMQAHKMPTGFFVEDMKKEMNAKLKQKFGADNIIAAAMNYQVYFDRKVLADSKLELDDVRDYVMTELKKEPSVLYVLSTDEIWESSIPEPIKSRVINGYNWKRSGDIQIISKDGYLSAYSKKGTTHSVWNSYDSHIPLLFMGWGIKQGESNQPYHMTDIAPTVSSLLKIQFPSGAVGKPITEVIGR
Substitution = S90V; value = 4.97 µM
Substitution = G138V; value = 1.99 µM
Substitution = K432V; value = 2.07 µM
Substitution = N205G; value = 2.21 µM
Substitution = A515V; value = 2.53 µM
Substitution = P227G; value = 1.73 µM
Substitution = V189G; value = 2.15 µM
Substitution = L394V; value = 2.09 µM

Sample 2
Target: CCNB3, cyclin fold, Cln2 fusion (human)
Technique: yeast growth competition, sequencing
Sample: yeast
Notes: weak parent motif
Baseline: not given
Reading: higher = stronger binding
Endpoint: normalised enrichment score
Starting sequence: viral docking peptide; PGASRRLFGSSAD; partner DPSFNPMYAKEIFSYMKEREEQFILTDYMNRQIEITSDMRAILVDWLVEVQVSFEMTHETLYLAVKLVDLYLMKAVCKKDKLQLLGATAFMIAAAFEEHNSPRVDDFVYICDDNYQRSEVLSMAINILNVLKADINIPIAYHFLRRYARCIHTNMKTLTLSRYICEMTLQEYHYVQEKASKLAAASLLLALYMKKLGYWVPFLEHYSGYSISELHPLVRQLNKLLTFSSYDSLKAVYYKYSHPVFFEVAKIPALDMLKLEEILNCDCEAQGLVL
Substitution = PGASRRLAGSSAD [F8A]; value = -0.0438
Substitution = PAASRRLFGSSAD [G2A]; value = 0.207
Substitution = PGASARAFGSSAD [R5A L7A]; value = 0.171
Substitution = PGASRRAFGSSAD [L7A]; value = -0.212
Substitution = PGAARRLFGSSAD [S4A]; value = 0.3
Substitution = PGASRRLFGASAD [S10A]; value = -0.131
Substitution = AGASRRLFGSSAD [P1A]; value = 0.475
Substitution = PGASKRLLGSSAD [R5K F8L]; value = 0.107

Other studies, line by line
Tested at: 10 µM
Compound = C[C@@H]1CN(c2cc(-c3n[nH]c4ccc(OC5(C)CC5)cc34)ncn2)C[C@H](C)O1; target or system = SLC6A3 (Homo sapiens, UniProt Q01959); test = ligand displacement; endpoint = inhibition; value = -24.4%
Compound = N#Cc1ccccc1-c1cc(-c2ccccn2)cn(-c2ccccc2)c1=O; target or system = HEK-293T; test = pseudovirus infection, FDA-approved drug library counter-screen; system = VSV pseudotyped with VSV-G; conditions = 16 h; scale = baseline: vehicle-treated; endpoint = GFP-positive cells; value = 102%

A few entries again (sample 1):
Substitution = K432V; value = 2.07 µM
Substitution = S90V; value = 4.97 µM
